# Assay results of several laboratories.
# Numbers after ± are the reported error.
SMILES,tested on,assay,system,setting,quantity,value
CN1CC[C@H](c2c(O)cc(O)c3c(=O)cc(-c4ccc(Cl)cc4)oc23)[C@H](O)C1,HIV-1,viral replication,"HeLa-CD4-LTR/β-gal, LAI",,EC50,16.7 nM
O=c1c2ccc(Oc3ccc(OC(F)(F)F)cc3)cc2[nH]c2cc(F)cc(F)c12,Toxoplasma gondii,"parasite growth, beta-galactosidase reporter","HFF, RH",,EC50,0.053 nM
C=C(C)c1cccc(C(C)(C)NC(=O)Nc2ccc(Cl)c(N)c2)c1,Staphylococcus aureus,,"Smith, RPMI medium",together with: no guanosine,MIC,1.7 µM
C=CC(=O)Nc1cc(-n2c(=O)ccc3cnc4ccc(-c5cn[nH]c5)cc4c32)ccc1C,U2932,cell growth,,72 h,GI50,1200 nM
C/C(=C\C=C\[C@@H](C)[C@H]1CC[C@@]2(C)[C@@H]3CC[C@H]4C(C)(C)[C@@H](O[C@@H]5O[C@H](CO)[C@@H](O)[C@H](O)[C@H]5O[C@@H]5O[C@H](CO)[C@@H](O)[C@H](O)[C@H]5O[C@@H]5O[C@@H](C)[C@H](O)[C@@H](O)[C@H]5O)CC[C@@]45C[C@@]35CC[C@]12C)C(=O)N[C@@H]1C(=O)O[C@H](C)[C@@H]1C,Trypanosoma brucei brucei,Alamar Blue,trypomastigote,,IC50,8800 nM
CN1CC[C@H](c2c(O)cc(O)c3c(=O)cc(-c4ccc(Br)cc4)oc23)[C@H](O)C1,HIV-1,viral replication,"HeLa-CD4-LTR/β-gal, LAI",,EC50,44.9 nM
C[C@H](CS)C(=O)N[C@@H](Cc1c[nH]c2ccccc12)C(=O)O,Klebsiella pneumoniae,,VIM-1 producing,"25 µM, together with: meropenem",MIC of meropenem,16 µg/mL
CO[C@H]1[C@H](O[C@H]([C@H]2O[C@@H](n3ccc(=O)[nH]c3=O)[C@H](O)[C@@H]2O)[C@H](NCCCNC(=O)[C@@H](NC(=O)[C@@H](NC(=O)N[C@H](C(=O)O)C(C)C)[C@@H]2CCNC(=N)N2)[C@@H](OC(=O)CCCCCCCCCCCCNC(=N)N)C(C)C)C(N)=O)O[C@H](CN)[C@H]1O,Cryptococcus gattii,alamar blue,C17,,MIC50,> 35 µg/mL
CC(C)(NC(=O)Nc1ccc(Cl)cc1)c1cccc(C(=N)NO)c1,Staphylococcus aureus,,"Smith, RPMI medium",together with: 1 mM guanosine,MIC,28 ± 4 µM
CO[C@H]1[C@H](O[C@H]([C@H]2O[C@@H](n3ccc(=O)[nH]c3=O)[C@H](O)[C@@H]2O)[C@H](NCCCNC(=O)[C@@H](NC(=O)[C@@H](NC(=O)N[C@H](C(=O)O)C(C)C)[C@@H]2CCNC(=N)N2)[C@@H](OC(=O)CCCCCCCCCCCCN(O)C(=N)N)C(C)C)C(N)=O)O[C@H](CN)[C@H]1O,Aspergillus fumigatus,alamar blue,,,MIC50,> 35 µg/mL
CC(CCN[C@H](CN[C@H](CO)CN1CCC[C@H]1CN[C@H](CN)c1ccccc1)c1ccccc1)c1ccccc1 (stereo partly drawn),Escherichia coli,bacterial growth,,"24 µM, fold shift of IC50, together with: amikacin",potentiation of amikacin,7.9 fold
NCc1ccc(-c2ncc(OCC3CCNCC3)nc2-c2ccc(-c3ccoc3)cc2)cc1,Zika virus,,"U87, FLR","600 nM, 48 h",infectious virus reduction,90%
COc1cc(C(C)C#Cc2c(C)nc(N)nc2N)cc(OC)c1OC (stereo not drawn),Candida glabrata,Alamar Blue,,,MIC,21 µg/mL
O=S(=O)(Nc1ccc2c(c1)B(O)OC2)c1ccccc1,Staphylococcus aureus,broth microdilution,MRSA ATCC BAA-1762,,MIC,6.25 µg/mL
NC[C@@H](NC[C@@H]1CCCN1C[C@@H](CO)NC[C@@H](NCCC1CC2CCC1C2)c1ccccc1)c1ccccc1 (stereo partly drawn),Klebsiella pneumoniae,bacterial growth,,"16 µM, fold shift of IC50, together with: amikacin",potentiation of amikacin,2.7 fold

# Repeated from above:
SMILES,tested on,assay,system,setting,quantity,value
O=S(=O)(Nc1ccc2c(c1)B(O)OC2)c1ccccc1,Staphylococcus aureus,broth microdilution,MRSA ATCC BAA-1762,,MIC,6.25 µg/mL
